Assay results from different studies.
Each line is one published result; not all experiments were run side by side. ± marks the error that the study gave.

SMILES	assay	test system	conditions	how to read	quantity	value
Cc1ccccc1CN1CCC(O)(c2ccc(Cl)c(C(F)(F)F)c2)CC1	LC-MS	BALB/c mouse, serum	oral, 50 mg/kg	–	serum concentration	< 100 ng/mL
CSCC[C@H](NC(=O)CNC(=O)[C@H](CC(=O)O)NC(=O)[C@@H](NC(=O)[C@@H](NC(=O)[C@@H](NC(=O)CNC(=O)[C@H](CCC(=O)O)NC(=O)[C@H](CCSC)NC(=O)[C@H](CC(=O)O)NC(=O)[C@H](C)NC(=O)[C@H](C)NC(=O)[C@@H](NC(=O)[C@H](CO)NC(=O)[C@@H](N)CC(C)C)[C@@H](C)O)C(C)C)C(C)C)[C@@H](C)O)C(=O)N[C@@H](C)C(=O)N[C@@H](CO)C(=O)NCC(=O)N[C@@H](CC(C)C)C(=O)N[C@@H](CC(=O)O)C(=O)N[C@@H](CCCCN)C(=O)N[C@@H](CC(=O)O)C(=O)N[C@@H](Cc1ccc(O)cc1)C(=O)N[C@@H](CC(C)C)C(=O)N[C@@H](CCCCN)C(=O)N1CCC[C@H]1C(=O)N[C@@H](CC(=O)O)C(=O)N[C@@H](CC(=O)O)C(=O)O	–	CD-1 mouse, male, serum	intravenous, 480 mg/kg, 24 h	–	serum concentration	103 to 149 ng/mL
CC(C)[C@H](NC(=O)[C@H](Cc1c[nH]c2ccccc12)NC(=O)[C@H](Cc1ccccc1)NC(=O)[C@@H](NC(=O)[C@@H](NC(=O)[C@H](CCCCN)NC(=O)[C@@H](N)CCCCN)C(C)C)C(C)C)C(=O)N[C@@H](CCCCN)C(=O)N[C@@H](Cc1ccccc1)C(=O)N[C@@H](CCCCN)C(N)=O	ELISA, measured: IgG2b	mouse, serum	iv, 500 µg/kg twice, 5 days	–	serum antibody level	0.265 ± 0.024 OD490
CCCCCCCCCCCCCCCC(=O)OCC(CSC[C@H](N)C(=O)N[C@@H](CO)C(=O)N[C@@H](CCCCN)C(=O)N[C@@H](CCCCN)C(=O)N[C@@H](CCCCN)C(=O)N[C@@H](CCCCN)C(=O)NCCCCCC(=O)N[C@@H](CCCCN)C(=O)N[C@@H](CC(C)C)C(=O)N[C@H](C(=O)N[C@@H](Cc1ccccc1)C(=O)N[C@@H](Cc1ccccc1)C(=O)N[C@@H](Cc1ccc2ccccc2c1)C(=O)O)C(C)C)OC(=O)CCCCCCCCCCCCCCC (some centres unmarked)	–	C57BL/6J mouse	intraperitoneal, 15 mg/kg twice	–	serum AST	no effect
CC(=O)N[C@H](C(=O)N[C@@H](CCCC(=O)OC(C)(C)C)C(=O)N[C@@H](CCC1CCCCC1)C(=O)N[C@@H](CC(=O)O)C(=O)COC(=O)c1c(C)cccc1C)C(C)(C)C	–	C57BL/6N mouse	dose not given	–	serum AST and ALT	increased
N=C(N)NCCC[C@H](NC(=O)[C@H](CCCNC(=N)N)NC(=O)[C@H](Cc1ccccc1)NC(=O)[C@H](Cc1c[nH]c2ccccc12)NC(=O)[C@H](Cc1c[nH]c2ccccc12)NC(=O)[C@H](Cc1ccccc1)NC(=O)[C@H](CCCNC(=N)N)NC(=O)[C@H](CCCNC(=N)N)NC(=O)[C@@H](N)Cc1ccccc1)C(=O)N[C@@H](Cc1ccccc1)C(N)=O	–	ICR mouse	intraperitoneal, 5, 10, 20 mg/kg daily, 3 days	reference: saline	serum ALP, ALT, BUN, creatinine, bilirubin	no effect
CC[C@H](C)[C@H](NC(=O)[C@H](CC(=O)O)NC(=O)[C@H](CO)NC(=O)[C@H](CCC(N)=O)NC(=O)[C@H](C)NC(=O)[C@H](CC(=O)O)NC(=O)[C@H](CCC(=O)O)NC(=O)[C@H](Cc1c[nH]cn1)NC(=O)[C@H](Cc1ccc(O)cc1)NC(=O)[C@H](C)NC(=O)[C@H](CC(=O)O)NC(=O)[C@H](CCC(=O)O)NC(=O)[C@H](Cc1c[nH]cn1)NC(=O)[C@H](Cc1ccc(O)cc1)NC(=O)[C@H](C)NC(=O)[C@H](CC(=O)O)NC(=O)[C@H](CCC(=O)O)NC(=O)[C@H](Cc1c[nH]cn1)NC(=O)[C@H](Cc1ccc(O)cc1)NC(=O)[C@H](C)NC(=O)[C@H](CC(=O)O)NC(=O)[C@H](CCC(=O)O)NC(=O)[C@H](Cc1c[nH]cn1)NC(=O)[C@H](Cc1ccc(O)cc1)NC(=O)[C@H](C)NC(=O)[C@H](CC(=O)O)NC(=O)[C@H](CCC(=O)O)NC(=O)[C@H](Cc1c[nH]cn1)NC(=O)[C@@H](N)Cc1ccc(O)cc1)C(=O)N[C@H](C(=O)N[C@@H](C)C(=O)N[C@@H](Cc1c[nH]cn1)C(=O)N[C@@H](CC(C)C)C(=O)N[C@@H](CC(C)C)C(=O)O)C(C)C	–	mouse, SN model	dose not given	–	serum creatinine	0.58 ± 0.07 mg/dL
CN(C)C(CNC(=O)Nc1cc(C(F)(F)F)ccc1N1CCOCC1)c1ccncc1 (centres unmarked)	–	mouse, serum	intraperitoneal, 360 mg/kg single dose	–	serum anion gap	27 mmol/L

Some of these lines once more:
SMILES	assay	test system	conditions	how to read	quantity	value
N=C(N)NCCC[C@H](NC(=O)[C@H](CCCNC(=N)N)NC(=O)[C@H](Cc1ccccc1)NC(=O)[C@H](Cc1c[nH]c2ccccc12)NC(=O)[C@H](Cc1c[nH]c2ccccc12)NC(=O)[C@H](Cc1ccccc1)NC(=O)[C@H](CCCNC(=N)N)NC(=O)[C@H](CCCNC(=N)N)NC(=O)[C@@H](N)Cc1ccccc1)C(=O)N[C@@H](Cc1ccccc1)C(N)=O	–	ICR mouse	intraperitoneal, 5, 10, 20 mg/kg daily, 3 days	reference: saline	serum ALP, ALT, BUN, creatinine, bilirubin	no effect
